Results pooled from the literature.
Each numbered part is a random draw from the data of one study; scales do not carry over between parts.
UniProt P07270, sequence (whole entry, looked up): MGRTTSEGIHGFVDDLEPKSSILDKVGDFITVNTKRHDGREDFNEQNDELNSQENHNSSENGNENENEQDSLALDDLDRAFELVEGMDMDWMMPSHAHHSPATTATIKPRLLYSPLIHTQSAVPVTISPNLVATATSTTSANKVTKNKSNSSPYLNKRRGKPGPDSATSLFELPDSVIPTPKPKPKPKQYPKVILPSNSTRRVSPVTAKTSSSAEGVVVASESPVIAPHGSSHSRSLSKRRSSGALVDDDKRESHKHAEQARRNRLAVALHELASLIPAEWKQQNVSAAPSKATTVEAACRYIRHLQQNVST

Sample 1 — method: universal PBM; molecule type: double-stranded DNA, one strand shown; sample: in vitro; concentration: not given; direction: higher = stronger binding; measurement: E-score
Target: Sal-like protein 4, full length isoform B (SALL4, Homo sapiens, UniProt Q9UJQ4-2, residues 1-616)
Setting: 8-mer, flanks averaged, mean of replicates
CTTAAAAA: 0.175
ACCCGAAG: -0.127
AGAGTGTG: -0.0298

Sample 2 — method: protein binding microarray; molecule type: double-stranded DNA, one strand shown; sample: in vitro; concentration: not given; baseline: not given; direction: higher = stronger binding; measurement: E-score
Target: Histone acetyltransferase KAT6A, winged helix 1, GST fusion (KAT6A, Homo sapiens, UniProt Q92794, residues 1-85)
Setting: 8-mer, flanks averaged, mean of 2 arrays, mostly near background
Construct (chain): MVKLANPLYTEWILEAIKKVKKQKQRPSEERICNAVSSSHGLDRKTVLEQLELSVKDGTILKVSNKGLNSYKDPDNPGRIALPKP
AAGATGGT: -0.255
TGTCGAAA: -0.223
CTCTCACA: -0.107

Single results of other studies
CBF1 full length, His-tagged: Centromere-binding protein 1, full length, His-tagged (CBF1, Saccharomyces cerevisiae, UniProt P17106, residues 1-351)
UniProt P17106, sequence (whole entry, looked up): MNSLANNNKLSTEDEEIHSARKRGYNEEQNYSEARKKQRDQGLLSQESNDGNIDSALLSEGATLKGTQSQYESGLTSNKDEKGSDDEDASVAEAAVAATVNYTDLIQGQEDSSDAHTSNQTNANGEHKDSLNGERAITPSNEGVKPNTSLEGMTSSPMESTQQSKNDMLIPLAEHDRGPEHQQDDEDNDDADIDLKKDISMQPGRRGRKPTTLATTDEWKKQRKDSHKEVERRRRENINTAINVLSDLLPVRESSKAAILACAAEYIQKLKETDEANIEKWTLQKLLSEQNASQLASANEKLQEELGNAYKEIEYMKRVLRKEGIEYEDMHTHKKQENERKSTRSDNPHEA
AAAGCGGTAATTTGAATGGTGGGTGCAGATATCTATGTCTTGATTCGCTTGACGCTGCTG  fluorescence intensity (CBF1 full length, His-tagged; competition protein-binding microarray; double-stranded DNA, one strand shown, in vitro; 2 µM, whole 60-bp probe, lowest competitor level, added: Pho4 competitor, 0.05 µM; higher = stronger binding): 72.7 a.u.
PhoQ, residues 284 288 289 292 302 303 AGGCYF  fold induction (PhoP, residues 12 14 15 18 19 FWNTL (Escherichia coli, UniProt P23836); Sort-seq, item: YFP reporter; E. coli; PhoQ-PhoP variant library, added: 10 µM Mg2+; baseline: high Mg2+ state, higher = stronger signaling): 0.703
CGTCCTAGTGATTTTCACGTGGCGTCCATGAGGAAGGTCTTGATTCGCTTGACGCTGCTG  fluorescence intensity (Phosphate system positive regulatory protein PHO4, full length, GST-tagged (PHO4, Saccharomyces cerevisiae, UniProt P07270, residues 1-312); competition protein-binding microarray; double-stranded DNA, one strand shown, in vitro; 2 µM, whole 60-bp probe, lowest competitor level, added: Cbf1 competitor, 0.05 µM; higher = stronger binding): 14900 a.u.
GTCTTGTCTCATTGTCACGCTACTTTCCCCACTTCAGTCTTGATTCGCTTGACGCTGCTG  fluorescence intensity (CBF1 full length, His-tagged; competition protein-binding microarray; double-stranded DNA, one strand shown, in vitro; 2 µM, whole 60-bp probe, lowest competitor level, added: Pho4 competitor, 0.05 µM; higher = stronger binding): 222 a.u.

Excerpt of the above (single results of other studies):
AAAGCGGTAATTTGAATGGTGGGTGCAGATATCTATGTCTTGATTCGCTTGACGCTGCTG  fluorescence intensity (CBF1 full length, His-tagged; competition protein-binding microarray; double-stranded DNA, one strand shown, in vitro; 2 µM, whole 60-bp probe, lowest competitor level, added: Pho4 competitor, 0.05 µM; higher = stronger binding): 72.7 a.u.
